Measurements of several laboratories.
Each numbered part is a random draw from the data of one study; scales do not carry over between parts.

Study 1 — method: RNA Bind-n-Seq; form: RNA; matrix: in vitro; tested at: 365 nM; baseline: no-protein control; reading: higher = stronger binding
Target: RNA binding protein fox-1 homolog 2, RRM domain, GST-SBP tag (RBFOX2, Homo sapiens, UniProt O43251-10, residues 100-194)
Notes: natural RNA segment, single round, ends assumed
All sequences stand within: GGGAGUUCUACAGUCCGACGAUC … UGGAAUUCUCGGGUGCCAA
Target sequence (chain): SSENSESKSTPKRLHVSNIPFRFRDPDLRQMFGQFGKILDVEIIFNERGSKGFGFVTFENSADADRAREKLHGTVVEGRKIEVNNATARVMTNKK
Strand	RBNS enrichment (R)
UUUUUUUCUCCCUCAAGUAUAAAUAGUGGUAACUAUAUGUUUUGUAUCUUCUAGCACCAACUGCUGUAAAGCAAUGCUGCAAAUAAUGCUUGAAUACAAGUGGCUAAGCC	0.582
CCCCGACCUGACACCUCAUAUGAUCUCUGCUUCUAAAAAUCAGGUGUGAUCCUACUUGAAAACAACCCUUGAGGAGGGCGCCUCGGUCACUGUGAGCAUGUCAGAGGCUU	3
CCCUGGAACUCCAGCGUAACCUGCCUUAGUGUUCCUUGUGUUGUCUGCUUUGAUGUAAAACCACAGGUGUGUCGAGGCAGAGGCUGCAGUCCUCUGUGCGCACAGUAGGC	0.385
CCAACUUGCUUAAAGAGGAAUCACUUAAAAGGUAGGCAUAUCUAAGAUGCUCAUAGAAGAGGAAGAAUGGGACAUGGCCCCAUGCUUAUUUUUGUUUACAACGUAACAUG	0.483
UUAGCCUGCUUCUCACAGGACACUUGUGACAGCAGAGCUGGGGGUGGUUUUCCAGCCUCGACCCACUGCGCUCACCUGGCACUGCCCCACUUUCUUCACCCUGGGUCUGU	0.282
AGAAGAAAUGUGGAGCGGAAACCCAGCACGAGGGGCUAGAACUCAGGGUAGAGAAUUUGCAGGCGGUGCAGACAGACUUUAGCUCCGAUCCACUGCAGAAAGUUGUGUGC	3.96
AUACAUGUAGAGUUCCUAGCAAAGUGGGCGCCUUUCUCGUCCACAGCAUUUAAAGAGAGGAAGGAGAACCAUCCUGGACACUCCGGGCUGUGCAUGUUUAAAGAAAUGUC	27.8
CAGAAGCAGGGCUCCACCCAGGCCUUCCCUUGGAGUCGGUGCAUCCAUGGGCUGCUAGACUCUUGCGGGUAGAGUCUCCCCUGGACUUAGCAUUGUGAGAUGGACUCAGC	0.582

Study 2 — cell line: HEK-293T-ACE2; tested at: concentration not given; baseline: vehicle
Structure (SMILES)	cell number
CC[C@H]1OC(=O)[C@H](C)[C@@H](O[C@H]2C[C@@](C)(OC)[C@@H](O)[C@H](C)O2)[C@H](C)[C@@H](O[C@@H]2O[C@H](C)C[C@H](N(C)C)[C@H]2O)[C@](C)(O)C[C@@H](C)CN(C)[C@H](C)[C@@H](O)[C@]1(C)O	99.4%
COCCc1ccc(OCC(O)CNC(C)C)cc1.COCCc1ccc(OCC(O)CNC(C)C)cc1.O=C(O)CCC(=O)O (stereo not drawn)	101%
C=CCN1CC[C@]23c4c5ccc(O)c4O[C@H]2[C@@H](OCCOCCOCCOCCOCCOCCOCCOC)CC[C@@]3(O)[C@H]1C5.O=C(O)C(=O)O	101%
CCCCCOc1ccc(-c2cc(-c3ccc(C(=O)N[C@H]4C[C@@H](O)[C@@H](O)NC(=O)[C@@H]5[C@@H](O)[C@@H](C)CN5C(=O)[C@H]([C@H](O)CC(N)=O)NC(=O)[C@H]([C@H](O)[C@@H](O)c5ccc(O)c(OS(=O)(=O)[O-])c5)NC(=O)[C@@H]5C[C@@H](O)CN5C(=O)[C@H]([C@@H](C)O)NC4=O)cc3)no2)cc1.[Na+]	103%

Study 3 — method: RNA Bind-n-Seq; form: RNA; matrix: in vitro; tested at: 200 nM; notes: whole 134-nt RNA, ends assumed; together with: 150 mM LiCl; baseline: input library; reading: higher = stronger binding; each molecule: 7-deaza-guanosine replaces G
Target: Ras GTPase-activating protein-binding protein 1, full length (G3BP1, Homo sapiens, UniProt Q13283)
UniProt Q13283, sequence (whole entry, looked up): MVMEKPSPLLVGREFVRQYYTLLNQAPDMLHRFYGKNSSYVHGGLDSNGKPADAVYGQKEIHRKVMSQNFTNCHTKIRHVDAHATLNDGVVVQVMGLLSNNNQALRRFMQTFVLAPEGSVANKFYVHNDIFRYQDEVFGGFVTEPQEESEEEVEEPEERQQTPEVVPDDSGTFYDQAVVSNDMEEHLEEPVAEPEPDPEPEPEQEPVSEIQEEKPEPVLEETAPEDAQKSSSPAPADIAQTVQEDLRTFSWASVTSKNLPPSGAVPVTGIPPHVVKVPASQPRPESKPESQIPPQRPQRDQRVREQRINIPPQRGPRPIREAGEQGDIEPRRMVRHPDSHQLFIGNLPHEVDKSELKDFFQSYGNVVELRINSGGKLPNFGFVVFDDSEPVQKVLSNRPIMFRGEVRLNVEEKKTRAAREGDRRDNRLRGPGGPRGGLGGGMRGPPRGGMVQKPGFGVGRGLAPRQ
All sequences stand within: GGGAGUUCUACAGUCCGACGAUC … UGGAAUUCUCGGGUGUCAAGG
Strand	log2 enrichment
AGUCCUGUGCUACACAUCGUAUGUACCGAAUCGGGGAAAAGGGGAAAAGGGGAAAAGGAAAGUAUUAUGUUACGCCGUUCGGAUCUGCAC	0.216
GUCCUGUGCUACACAUCGUAUGUACCGAAUCGGGGUUUGGGGUUUUUGGGGAAAGGGGAAAGUAUUAUGUUACGCCGUUCGGAUCUGCAC	-0.0894
AGGGAGGUGGAUUUUGUUUAUUUUUUUAGCUCAUUUCCAGGGGUGGGAAUUUUUUUUUAAUAUGUGUCAUGAAUAAAGUUGUUUUUGAAA	0.34
GUCCUGUGCUACACAUCGUAUGUACCGAAUCGGGGUUUUUGGGGUUUUUGGGUUUUUGGAAAGUAUUAUGUUACGCCGUUCGGAUCUGCA	-0.239
UCCUGUGCUACACAUCGUAUGUACCGAAUCGGGGCCCCCGGGGCCCCCGGGCCCCCGGGGAAAGUAUUAUGUUACGCCGUUCGGAUCUGC	-1.71
GCAGGAAGUAAAAACAAAUGGAAAUGCUUCGGAUAGUGGCAGGGGUGGGGGUUAAAAAGGAAAGGGUGGGAUGGGAGUGGGUAAAGAGUU	0.473
CAAGUCCUGUGCUACACAUCGUAUGUACCGAAUCGGGUUUUUUUGGGAGGGUGGGAAAGUAUUAUGUUACGCCGUUCGGAUCUGCACUUC	-0.0546
ACCAUGCAGCUGGGCAUCUUUGGGAAGUGGGGCAAGGGGGGGAUAGGGAGGGGGGUAACACUUUGGGAACAGGUGGUCCCAGGUCGUUUC	-0.00624

Study 4 — method: RNA Bind-n-Seq; form: RNA; matrix: in vitro; tested at: not given; baseline: input RNA pool; reading: higher = stronger binding
Target: RING finger protein unkempt homolog, zinc fingers 1-6, GST-SBP tag (UNK, Homo sapiens, UniProt Q9C0B0, residues 30-357)
UniProt Q9C0B0, sequence (30-357, looked up): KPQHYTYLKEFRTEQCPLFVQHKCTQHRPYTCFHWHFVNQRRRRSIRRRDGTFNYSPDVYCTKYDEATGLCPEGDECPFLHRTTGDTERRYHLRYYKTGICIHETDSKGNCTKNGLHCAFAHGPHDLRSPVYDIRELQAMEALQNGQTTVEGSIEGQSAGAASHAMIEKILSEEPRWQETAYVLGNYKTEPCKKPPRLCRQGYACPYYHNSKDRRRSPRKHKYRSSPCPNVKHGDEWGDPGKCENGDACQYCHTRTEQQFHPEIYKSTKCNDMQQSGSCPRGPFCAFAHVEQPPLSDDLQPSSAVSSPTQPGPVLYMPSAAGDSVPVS
Notes: RNA with constant flanks, human and mouse sites, ends assumed
Strand	bound/input enrichment [ratio]
GGGAGUUCUACAGUCCGACGAUCGUCACUGGGCUUCUCAAGGAGCUGCAUACCCGCCUAGACAGGAGAUCUCGGCUAGUGGUUCUCUCUGCCCUGGGGGUGCCUGGCACAGGGAAAUCUACACUCCUUAACACCAUGUUUGGCCAACAGAGGAUUGAGCAUCA	0.193
GGGAGUUCUACAGUCCGACGAUCCCCUUUUCUAAAAUUGAGAUAACAUAGUUCUUGAAUAUUUUGCUGUAUUUAUAGCCUCAUAUUUAGGCAUUUAUGCACUGAUGUGUCUUCAAUAAAAAUCUUGUACAGAUAUAUUUUUAUCAACAGAGGAUUGAGCAUCA	0.619
GGGAGUUCUACAGUCCGACGAUCAAUCUCUGGGAACACUAUUAUAAAGAAGGCCAAGCUAUUAUUUUUGUCAUUGAUAGUAGUGAUAGAUUAAGAAUGGUUGUGGCCAAAGAAGAACUCGAUACUCUUCUGAAUCAUCCAGAUCAACAGAGGAUUGAGCAUCA	0.129
GGGAGUUCUACAGUCCGACGAUCUGGCGUCUGAUUUGUAUGUCACAUUUGUGUAAAAUGGUAUGUUCUUUAAAAUGGUGUUGAUAACUGGAAUAUUGUAUGUAUGCUUGAAGAUGCUUUGUGCGAACCUAAGACUCACUCAGCCAACAGAGGAUUGAGCAUCA	0.367

Study 5 — read-out: enzyme activity; action: inhibitor; tested at: 20 µM
Target: Replicase polyprotein 1ab, polymerase (rep, Severe acute respiratory syndrome coronavirus 2, UniProt P0DTD1)
Compound	inhibition [%]
C[N+](C)(CF)CCO	-3.79
CN(C)CCCCC(=O)Nc1ccc(NC(=S)NC(=O)c2ccc(C(C)(C)C)cc2)cc1	-2.51
CN1C(=O)CCS(=O)(=O)C1c1ccc(Cl)cc1 (stereo not drawn)	-0.94
Cc1cc(-c2nncc3c(C(C)(C)C)c(OCc4ncnn4C)nn23)no1	-2.42
NC(N)=NC(N)=Nc1cccc(Cl)c1	-3.65
Cc1cnc(Nc2ccc(F)cc2Cl)nc1-c1c[nH]c(C(=O)N[C@H](CO)c2cccc(Cl)c2)c1	2.16
CCOC(=O)[C@H](Cc1ccc([N+](=O)[O-])cc1)NC(=O)c1ccccc1	-1.18
C[N+]1(C)[C@@H]2CC[C@H]1C[C@@H](OC(=O)C(O)c1ccccc1)C2 (stereo partly drawn)	5.96
CCOC(=O)C(=O)Nc1cccc(OC)c1C(N)=O	2.57
CC[C@H](C)[C@H](N)C(=O)O	5.11
CCCS(=O)(=O)Nc1ccc(F)c(C(=O)c2c[nH]c3ncc(-c4ccc(Cl)cc4)cc23)c1F	3.22
CC(C)C[C@H](NC(=O)N1CCCCCC1)C(=O)N[C@H](Cc1cn(C)c2ccccc12)C(=O)N[C@H](Cc1ccccn1)C(=O)O	1.76
CCN(CC)CCNC(=O)c1cc(S(C)(=O)=O)ccc1OC	2.93
NS(=O)(=O)c1cc2c(cc1C(F)(F)F)NCNS2(=O)=O	22.4
N[C@@H](Cn1ccc(=O)n(Cc2ccccc2C(=O)O)c1=O)C(=O)O	2.36
O=C1CCCCCCCCCCCCCCO1	2.8
Cc1ccc(/C=C2\CNC/C(=C\c3ccc(C)cc3)C2=O)cc1	-2.92
Cc1ccc(-n2sc(=O)n(Cc3ccc(F)cc3)c2=O)cc1	-1.91
CCOC(=O)c1ccc(N2NC(=O)/C(=C/c3ccc([N+](=O)[O-])o3)C2=O)cc1	98
NCC(O)(CS(=O)(=O)O)c1ccc(Cl)cc1 (stereo not drawn)	-5.98
CCCCc1cc2ccccc2c(OCCN(C)C)n1	-4.37
CCCC1O[C@@H]2C[C@H]3[C@@H]4CCC5=CC(=O)C=C[C@]5(C)[C@H]4[C@@H](O)C[C@]3(C)[C@]2(C(=O)CO)O1 (stereo partly drawn)	1.92
CC[C@H]1OC(=O)[C@H](C)[C@@H](O[C@H]2C[C@@](C)(OC)[C@@H](O)[C@H](C)O2)[C@H](C)[C@@H](O[C@@H]2O[C@H](C)C[C@H](N(C)C)[C@H]2O)[C@](C)(O)C[C@@H](C)CN(C)[C@H](C)[C@@H](O)[C@]1(C)O	1.88
Oc1cccc(O)c1	0.28
O=C(O)CCc1c[nH]c2ccccc12	-5.02

Study 6 — read-out: enzyme activity; action: inhibitor; tested at: 20 µM
Target: Replicase polyprotein 1ab, main protease (rep, Severe acute respiratory syndrome coronavirus 2, UniProt P0DTD1)
SMILES	inhibition
O=C(CC1Sc2ncnn2C1=O)Nc1ccc(Br)cc1 (stereo not drawn)	39.5%
CC(=O)[O][Hg][c]1ccccc1	100%
O=C(NC(=S)N1CCCc2ccccc21)c1ccccc1	68.6%
S=c1nn[nH]n1-c1ccccc1	78.4%
CCCCCCCCCCCCCCCC[n+]1ccn(Cc2ccccc2)c1C	36.3%

A few entries again (study 5):
Compound	inhibition [%]
CC[C@H](C)[C@H](N)C(=O)O	5.11
CCCS(=O)(=O)Nc1ccc(F)c(C(=O)c2c[nH]c3ncc(-c4ccc(Cl)cc4)cc23)c1F	3.22
CC(C)C[C@H](NC(=O)N1CCCCCC1)C(=O)N[C@H](Cc1cn(C)c2ccccc12)C(=O)N[C@H](Cc1ccccn1)C(=O)O	1.76
